Published values collected from several papers.
A part holds a random share of what one study measured.

Sample 1
Target: RNA binding protein fox-1 homolog 2, RRM domain, GST-SBP tag (RBFOX2, Homo sapiens, UniProt O43251-10, residues 100-194)
Method: RNA Bind-n-Seq
Molecule type: RNA
Matrix: in vitro
Tested at: 365 nM
Setting: natural RNA segment, single round, ends assumed
Reference: no-protein control
Reading: higher = stronger binding
Measurement: RBNS enrichment (R)
All sequences stand within: GGGAGUUCUACAGUCCGACGAUC … UGGAAUUCUCGGGUGCCAA
Residues (chain): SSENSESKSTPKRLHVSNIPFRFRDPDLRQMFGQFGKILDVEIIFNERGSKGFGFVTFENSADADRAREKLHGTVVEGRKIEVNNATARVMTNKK
UAGUGUUCCCAGAGCACUUUGCAACUCCCUGGGUAAGAGGGACGACACCUCUGGUUUUUCAAUACCAAUUACAUGGAACUUUUCUGUAAUGGGUACAAUGAAGAAGUUUC: 0.422
GAAGCAGAAGCAGACAUCCCAUUGCACCAGGACAGAGUACGGGACUUCACUCGGCAAGCAGCCCUGGUCAGAUCUGGCAGUCUUGUUGCCGAAGAUUCUGCGUGUCCUUC: 0.851
ACAAAAUAAUGGUAAUUAAAGAAGCAAAGCUUCAGCCAUACUAAGGGGUUUCUUGUCUGCAGAGUGUAGAGACUCAUCAGUGUACAGAUGAGACCUGCUCAUCGUGCGAC: 0.368
AGCUGGGCCCAGCCCCUCCACGUGAUUUCCAGUGAGUGUAAAUAAUUUUAAAUAACCUCUGGCCCUUGGAAUAAAGUUCUGUUUUCUGUAUUUGCCUGGUAUUGUGUGAG: 0.842
UUAACAACCCUUUAACAAACUAAAUAAUUUUUAAGCAGCCAGGAAAUUUUAGAGGACAGAUAUUUGACCAAAAGACUAUCAACUUUAAACAUUUAUUUUAUGGUUUCUUG: 0.683
UGUUAACCAAAAGAGCUUCCCCUCCCCCAGUUUUCUUUUAUGACCACUGAUGACUGCGGCUGUCUCGACAGUCAUCUUCACAUCUGCUCCCCUCCACAGUCACUAGAGGG: 0.595
UGAAUGAUCUCUUCCCUAGAGUUGAUUGUCGGGUACACAGUGUGAACCCCCGAAGACGGAACCUCACAGUCUUCCAUGUUCCCUUCUUAACUGUCGUGUGGCUCGUUGCU: 3.27
AAUCUGGGCUGGUCCUUCUAUAUUCUUGGUCCCAGUUGGUCAUAACACCAAGGGCUUUGCCCUGCGCUGCUUUGCCACUGCUGCUGUCCGCUCACUGUCCUGCCUGCUGU: 1.07
AAUUCAUGUCAGUGAAGAAAUGCAGAAUUUAAACAAAAUCAGCUUGAGUUUGUUUUACCAGAUGCUCAGCUUGCUAACACACUUGAGAUCAGACCAUACUCUGAGCAGAC: 0.239
ACUUGAUUGCUUUCCAGUUUAAUGAAAGCUUAGAUGUCCCUGCGAACCCACAAUCUCCACCAGCAGAGCUGGUGUUGUUCUGAAUAGUGCAGACUGAUUCGAACACAAGG: 0.292
CUUCUUCCCCAAUAUGCCUGCGCCAUCUUCACAUUCUGAAGUUGAAACCCAUGAUCACCCCUUUGAGGUAGAUUGACCGGCUUUAGACGCCCACCCCCCACCCACCGCAA: 0.544
UUCAGGCAUUUCUAUUUCACAAUCGAAUUGAACACAUUGGCCAAAUAAAGUUGAAAUUUUACCACCUUCCUUGCCUCGGGUUUAUGAUCUCACCAAGCCCGGAGAGCUGG: 0.605

Sample 2
Target: Histone acetyltransferase KAT6A, winged helix 2, GST fusion (KAT6A, Homo sapiens, UniProt Q92794, residues 85-181)
Method: protein binding microarray
Molecule type: double-stranded DNA, one strand shown
Matrix: in vitro
Tested at: not given
Setting: 8-mer, flanks averaged, mean of 2 arrays, mostly near background
Reference: not given
Reading: higher = stronger binding
Measurement: E-score
Target sequence (chain): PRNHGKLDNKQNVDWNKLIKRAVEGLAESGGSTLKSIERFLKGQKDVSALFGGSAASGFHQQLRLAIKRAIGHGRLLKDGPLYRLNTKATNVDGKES
AAAATGTA: 0.0546
CACGAGTA: -0.119
GTCGAAGA: 0.114
ATGATATA: -0.0251
ACTATGCT: 0.0855
GTACATAC: -0.171
GCCCAGAA: 0.0349
ATCGGATC: 0.0822
AATGCGTA: -0.0448
CGGCATAG: 0.00711
ACATGCAG: 0.0673
GCGTACCC: 0.152
ATGACCTG: -0.0485
ACGCTGCT: -0.0923
CTATTGCC: -0.144
GCTAATTA: 0.0151
AAGTACAT: -0.104
CCACACGG: 0.149
CCCCTTCC: 0.0527
GTGGGGGA: -0.108
ATCACCCA: -0.0952
GACGAGTA: 0.0558
ATGGTTGC: -0.0457
AACCGAAC: 0.134
ACTGAGGG: -0.182

Sample 3
Target: Sal-like protein 4, full length isoform A (SALL4, Homo sapiens, UniProt Q9UJQ4, residues 1-1053)
UniProt Q9UJQ4, sequence (whole entry, looked up): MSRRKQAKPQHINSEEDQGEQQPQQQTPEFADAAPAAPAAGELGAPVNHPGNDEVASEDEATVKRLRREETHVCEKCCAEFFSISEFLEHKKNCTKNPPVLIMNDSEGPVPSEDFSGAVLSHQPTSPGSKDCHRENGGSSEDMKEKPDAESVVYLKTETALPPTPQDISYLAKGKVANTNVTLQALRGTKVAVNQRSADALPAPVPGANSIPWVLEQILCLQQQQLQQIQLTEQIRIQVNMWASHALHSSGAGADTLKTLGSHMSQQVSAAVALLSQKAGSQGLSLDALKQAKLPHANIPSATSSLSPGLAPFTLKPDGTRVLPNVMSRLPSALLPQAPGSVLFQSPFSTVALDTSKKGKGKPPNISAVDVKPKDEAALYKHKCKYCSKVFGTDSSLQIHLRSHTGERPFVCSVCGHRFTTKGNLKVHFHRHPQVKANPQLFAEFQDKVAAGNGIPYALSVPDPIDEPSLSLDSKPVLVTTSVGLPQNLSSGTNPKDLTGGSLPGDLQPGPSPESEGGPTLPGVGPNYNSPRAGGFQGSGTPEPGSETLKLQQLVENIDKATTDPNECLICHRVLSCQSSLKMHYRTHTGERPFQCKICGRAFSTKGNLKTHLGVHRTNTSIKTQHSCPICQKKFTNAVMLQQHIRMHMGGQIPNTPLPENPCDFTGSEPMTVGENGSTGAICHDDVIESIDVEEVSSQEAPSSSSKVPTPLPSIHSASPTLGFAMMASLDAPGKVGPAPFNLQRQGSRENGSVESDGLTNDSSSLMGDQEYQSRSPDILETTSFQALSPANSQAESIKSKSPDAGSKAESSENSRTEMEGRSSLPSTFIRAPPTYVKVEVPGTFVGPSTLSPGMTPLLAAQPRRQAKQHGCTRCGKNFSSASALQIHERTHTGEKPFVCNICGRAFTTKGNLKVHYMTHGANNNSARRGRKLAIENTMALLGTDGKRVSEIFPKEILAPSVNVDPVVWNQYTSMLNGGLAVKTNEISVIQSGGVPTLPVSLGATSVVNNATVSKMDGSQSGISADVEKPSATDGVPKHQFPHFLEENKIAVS
Method: universal PBM
Molecule type: double-stranded DNA, one strand shown
Matrix: in vitro
Tested at: 600 nM
Setting: 8-mer, flanks averaged, mean of replicates
Reading: higher = stronger binding
Measurement: E-score
CAAGGTCA: -0.0861
CTTGACCC: -0.281
ATGACCGG: -0.221
GTAGAGAA: -0.00248
GAGTAGCC: -0.251
AACCGGAA: -0.0787
AAGAAACT: -0.0185
ACTAGACC: 0.0147
CTCATAAC: 0.199
GTAAACGA: 0.141
AACGTTGT: 0.14
AAGTTATT: 0.325
CCGAAGCC: -0.341
CGCTATGC: -0.13
ACAGCAAA: 0.205
AAACGTGG: -0.1
TCTAGAAA: 0.128
CGAGAGGA: -0.115
AACTTGCA: 0.0354
CGTCTATA: 0.138
GTCATAAA: 0.415
CCCGTCTC: -0.375
TAATTCTA: 0.289
ACTAGTTG: -0.0389
AGACACCA: 0.0504

Sample 4
Target: Phosphate system positive regulatory protein PHO4, full length, GST-tagged (PHO4, Saccharomyces cerevisiae, UniProt P07270, residues 1-312)
Method: competition protein-binding microarray
Molecule type: double-stranded DNA, one strand shown
Matrix: in vitro
Tested at: 2 µM
Setting: whole 60-bp probe, lowest competitor level
Together with: Cbf1 competitor, 0.05 µM
Reading: higher = stronger binding
Measurement: fluorescence intensity
All sequences stand within: … GTCTTGATTCGCTTGACGCTGCTG
Target sequence (chain): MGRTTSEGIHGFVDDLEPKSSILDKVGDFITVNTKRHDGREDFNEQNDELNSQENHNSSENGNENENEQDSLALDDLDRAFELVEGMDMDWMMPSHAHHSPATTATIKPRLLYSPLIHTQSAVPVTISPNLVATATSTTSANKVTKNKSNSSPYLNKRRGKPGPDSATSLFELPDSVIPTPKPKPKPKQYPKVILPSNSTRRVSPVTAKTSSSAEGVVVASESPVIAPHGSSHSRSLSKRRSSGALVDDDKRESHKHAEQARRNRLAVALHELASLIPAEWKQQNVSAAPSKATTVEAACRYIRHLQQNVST
TCATTGCTGGCTTGCCACGTGATGGCAATAGGCTTT: 15300 a.u.
CTAACGAAGGTTTGAGCTGTGGGTGACAAGCCAAGT: 3800 a.u.
GGTACAGCCGTCTACAACGTGTGTTAATTTGCTAAC: 12900 a.u.
TAGTTATCCAGATGGATCGTGGCCGCGAGTACACTA: 8080 a.u.
CTTTGAGCACCACTCCACGTGGGCGCAGGCGCAGCG: 16600 a.u.
CCACTAATTAGCTGTCATGTGCCTGCGAACGCCCAA: 8520 a.u.
AAAGCGGTAATTTGTCACCTCACTTCACATATCTAT: 3800 a.u.
CCTCGGCTGTTCAGCAACGTGAGATGGTTGTTGTTA: 9280 a.u.
AGCAGTGCTTTTACCCCCGTGCTTTTCGTTACAATA: 11000 a.u.
CTTCTGTAAATTTGAATGGTGGGTGGACGCGCCCCG: 4060 a.u.
GACCTGGAGGAAGAACATGTGCCCTTGATTCAAGGC: 10200 a.u.
CGTCCTAGTGATTGCCCGGTGGGTGCCATGAGGAAG: 6770 a.u.
CATACCCAACCTTGTCGTGTGGGTGAAGATATTTGT: 5580 a.u.
AGCAGCAATCCGCTGGACGTGGGTAAGTTGAAAGTT: 5280 a.u.
ACCTCATCACATCGACGCGTGGAACAGCGTTTCTTC: 7560 a.u.
CGGGGTTAAGTTTGAGTAGTGGGTGGCTTGCAGCAG: 5050 a.u.
ATACTATCATTAACTTCCGTGACTCGATTGGTTTGC: 3840 a.u.

Sample 5
Target: Cyclic AMP-responsive element-binding protein 1 (CREB1, Homo sapiens, UniProt P16220, residues 1-327, full length assumed)
UniProt P16220, sequence (whole entry, looked up): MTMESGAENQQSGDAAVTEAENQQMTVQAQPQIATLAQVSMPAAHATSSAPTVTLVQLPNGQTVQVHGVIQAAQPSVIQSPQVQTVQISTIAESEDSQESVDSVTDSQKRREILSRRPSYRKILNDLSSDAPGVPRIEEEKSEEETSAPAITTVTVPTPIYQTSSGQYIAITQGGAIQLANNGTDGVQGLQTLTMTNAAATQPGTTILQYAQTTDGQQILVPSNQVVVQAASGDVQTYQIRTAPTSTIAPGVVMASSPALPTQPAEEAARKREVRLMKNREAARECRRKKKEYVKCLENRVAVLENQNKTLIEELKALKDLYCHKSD
Method: protein-binding microarray
Molecule type: double-stranded DNA, one strand shown
Matrix: in vitro
Tested at: not given
Setting: k-mer, scored over probes, only values ≥0.25
Reading: higher = stronger binding
Measurement: E-score
CCGTCAC: 0.333
GTAATAA: 0.325
CACACTA: 0.255
TACATGA: 0.318
ATGACGC: 0.484
CACGTGA: 0.279
GACGTGA: 0.294
TGCGTAA: 0.317
ACGTCAC: 0.498
CATTACA: 0.282
ATTTTCA: 0.252
CGTCATC: 0.488
AATACGT: 0.324
ACGTATA: 0.387
AATATAC: 0.334
AAAAAGC: 0.271
AGTCACG: 0.261
CGTCACC: 0.458
AATATAT: 0.308
TATTACA: 0.283
AATGCGT: 0.263
GCGTCAC: 0.482
ACGTAAT: 0.475
ACGTCAG: 0.474
ATACGTG: 0.27

Some of these lines once more (sample 3):
AACGTTGT: 0.14
AAGTTATT: 0.325
CCGAAGCC: -0.341
CGCTATGC: -0.13
ACAGCAAA: 0.205
